Experimental data pooled from the literature.
Lines come from different studies, so protocols differ.
CTSL: Procathepsin L (CTSL, Homo sapiens, UniProt P07711)
Sequence of UniProt P07711 (whole entry, looked up): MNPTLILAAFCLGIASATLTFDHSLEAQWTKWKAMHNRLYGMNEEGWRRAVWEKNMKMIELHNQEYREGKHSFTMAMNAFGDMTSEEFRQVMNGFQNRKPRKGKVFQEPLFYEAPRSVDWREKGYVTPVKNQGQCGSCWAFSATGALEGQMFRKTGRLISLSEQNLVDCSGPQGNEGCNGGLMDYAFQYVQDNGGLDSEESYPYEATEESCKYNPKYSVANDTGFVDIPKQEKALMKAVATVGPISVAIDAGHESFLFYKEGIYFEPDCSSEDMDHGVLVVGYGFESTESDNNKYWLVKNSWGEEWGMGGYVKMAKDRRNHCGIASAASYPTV
Sequence of UniProt O15075 (whole entry, looked up): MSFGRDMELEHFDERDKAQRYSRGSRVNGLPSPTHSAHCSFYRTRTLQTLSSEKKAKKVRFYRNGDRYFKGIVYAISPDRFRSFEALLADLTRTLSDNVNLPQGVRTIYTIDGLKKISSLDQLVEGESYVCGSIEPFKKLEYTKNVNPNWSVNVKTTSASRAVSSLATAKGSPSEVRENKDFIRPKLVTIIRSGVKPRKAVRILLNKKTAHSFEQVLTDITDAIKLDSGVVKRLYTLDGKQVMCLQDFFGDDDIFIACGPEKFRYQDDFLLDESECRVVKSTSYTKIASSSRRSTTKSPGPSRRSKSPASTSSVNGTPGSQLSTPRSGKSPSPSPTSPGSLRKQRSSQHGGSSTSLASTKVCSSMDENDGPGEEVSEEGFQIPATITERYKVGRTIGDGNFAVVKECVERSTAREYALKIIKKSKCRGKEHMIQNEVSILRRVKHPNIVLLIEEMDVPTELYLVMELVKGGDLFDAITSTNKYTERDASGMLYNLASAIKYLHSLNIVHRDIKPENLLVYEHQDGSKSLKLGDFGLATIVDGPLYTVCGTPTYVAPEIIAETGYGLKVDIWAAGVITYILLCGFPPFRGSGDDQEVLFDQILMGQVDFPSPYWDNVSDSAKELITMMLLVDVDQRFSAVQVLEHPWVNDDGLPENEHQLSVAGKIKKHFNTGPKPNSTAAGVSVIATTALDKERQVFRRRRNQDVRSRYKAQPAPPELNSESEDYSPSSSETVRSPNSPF
Sequence of UniProt Q92630 (whole entry, looked up): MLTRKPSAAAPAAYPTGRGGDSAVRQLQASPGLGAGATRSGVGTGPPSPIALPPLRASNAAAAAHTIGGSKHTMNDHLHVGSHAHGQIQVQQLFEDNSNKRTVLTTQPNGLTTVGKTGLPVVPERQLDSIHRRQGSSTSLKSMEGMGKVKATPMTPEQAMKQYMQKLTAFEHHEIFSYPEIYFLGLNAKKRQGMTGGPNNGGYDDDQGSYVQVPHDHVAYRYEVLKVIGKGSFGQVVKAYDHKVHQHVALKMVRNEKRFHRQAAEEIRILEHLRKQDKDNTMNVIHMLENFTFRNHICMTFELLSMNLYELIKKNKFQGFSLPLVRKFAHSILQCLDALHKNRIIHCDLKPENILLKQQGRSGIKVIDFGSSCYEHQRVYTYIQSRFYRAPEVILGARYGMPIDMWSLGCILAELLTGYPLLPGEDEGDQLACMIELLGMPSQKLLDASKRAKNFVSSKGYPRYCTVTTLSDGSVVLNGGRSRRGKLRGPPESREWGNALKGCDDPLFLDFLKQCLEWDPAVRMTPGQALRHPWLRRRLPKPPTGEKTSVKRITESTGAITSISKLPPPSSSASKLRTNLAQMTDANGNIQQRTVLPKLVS
Sequence of UniProt Q00532 (whole entry, looked up): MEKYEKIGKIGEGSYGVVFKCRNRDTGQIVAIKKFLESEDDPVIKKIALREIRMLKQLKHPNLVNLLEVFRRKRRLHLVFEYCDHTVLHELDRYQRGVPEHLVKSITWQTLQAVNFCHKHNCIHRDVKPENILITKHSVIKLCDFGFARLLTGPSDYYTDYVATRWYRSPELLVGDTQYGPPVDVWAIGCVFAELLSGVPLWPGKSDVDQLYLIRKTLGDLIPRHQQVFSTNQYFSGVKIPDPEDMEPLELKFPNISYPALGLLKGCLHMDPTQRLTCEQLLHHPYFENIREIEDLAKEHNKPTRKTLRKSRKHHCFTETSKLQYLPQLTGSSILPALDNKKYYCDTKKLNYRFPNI
Sequence of UniProt Q70EK9 (whole entry, looked up): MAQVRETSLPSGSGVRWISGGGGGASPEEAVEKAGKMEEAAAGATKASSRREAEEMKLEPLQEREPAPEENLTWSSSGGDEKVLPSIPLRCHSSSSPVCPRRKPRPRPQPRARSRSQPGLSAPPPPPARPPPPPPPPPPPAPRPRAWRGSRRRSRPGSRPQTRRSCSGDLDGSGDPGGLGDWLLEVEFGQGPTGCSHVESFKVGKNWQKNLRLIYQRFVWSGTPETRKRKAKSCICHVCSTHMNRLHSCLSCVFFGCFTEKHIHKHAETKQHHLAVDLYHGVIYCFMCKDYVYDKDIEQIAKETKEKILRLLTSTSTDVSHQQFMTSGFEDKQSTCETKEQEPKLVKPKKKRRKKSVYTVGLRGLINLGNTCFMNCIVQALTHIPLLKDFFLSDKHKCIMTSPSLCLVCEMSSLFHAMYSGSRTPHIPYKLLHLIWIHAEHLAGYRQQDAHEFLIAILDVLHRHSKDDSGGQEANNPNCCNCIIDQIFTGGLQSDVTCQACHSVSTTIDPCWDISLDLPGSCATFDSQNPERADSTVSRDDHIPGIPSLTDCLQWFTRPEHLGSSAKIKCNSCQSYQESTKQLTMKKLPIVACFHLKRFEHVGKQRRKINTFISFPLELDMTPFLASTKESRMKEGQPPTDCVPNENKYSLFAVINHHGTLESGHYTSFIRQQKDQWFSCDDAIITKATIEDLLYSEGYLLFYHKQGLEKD
Sequence of UniProt Q16288 (whole entry, looked up): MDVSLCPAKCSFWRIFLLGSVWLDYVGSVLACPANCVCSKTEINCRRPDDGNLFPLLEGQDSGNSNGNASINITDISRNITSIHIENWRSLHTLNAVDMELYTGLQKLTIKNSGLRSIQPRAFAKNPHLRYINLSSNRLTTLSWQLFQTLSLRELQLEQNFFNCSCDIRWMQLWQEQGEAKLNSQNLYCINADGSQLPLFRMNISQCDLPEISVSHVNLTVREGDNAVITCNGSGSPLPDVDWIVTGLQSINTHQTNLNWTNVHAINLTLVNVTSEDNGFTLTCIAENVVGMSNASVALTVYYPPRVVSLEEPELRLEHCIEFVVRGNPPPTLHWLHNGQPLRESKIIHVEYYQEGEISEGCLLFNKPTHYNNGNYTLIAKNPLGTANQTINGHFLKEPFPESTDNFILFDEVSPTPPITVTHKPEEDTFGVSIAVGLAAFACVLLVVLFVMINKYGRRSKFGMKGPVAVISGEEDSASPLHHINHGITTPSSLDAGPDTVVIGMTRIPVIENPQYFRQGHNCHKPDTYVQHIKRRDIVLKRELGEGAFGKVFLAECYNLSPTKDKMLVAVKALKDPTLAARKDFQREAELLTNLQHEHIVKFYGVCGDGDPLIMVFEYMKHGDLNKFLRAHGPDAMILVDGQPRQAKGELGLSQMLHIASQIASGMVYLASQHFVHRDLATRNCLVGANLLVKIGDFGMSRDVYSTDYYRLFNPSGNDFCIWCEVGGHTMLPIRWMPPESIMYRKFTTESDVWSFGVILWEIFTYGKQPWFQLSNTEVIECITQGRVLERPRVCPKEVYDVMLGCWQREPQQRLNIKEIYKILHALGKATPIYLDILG
Sequence of UniProt P35462 (whole entry, looked up): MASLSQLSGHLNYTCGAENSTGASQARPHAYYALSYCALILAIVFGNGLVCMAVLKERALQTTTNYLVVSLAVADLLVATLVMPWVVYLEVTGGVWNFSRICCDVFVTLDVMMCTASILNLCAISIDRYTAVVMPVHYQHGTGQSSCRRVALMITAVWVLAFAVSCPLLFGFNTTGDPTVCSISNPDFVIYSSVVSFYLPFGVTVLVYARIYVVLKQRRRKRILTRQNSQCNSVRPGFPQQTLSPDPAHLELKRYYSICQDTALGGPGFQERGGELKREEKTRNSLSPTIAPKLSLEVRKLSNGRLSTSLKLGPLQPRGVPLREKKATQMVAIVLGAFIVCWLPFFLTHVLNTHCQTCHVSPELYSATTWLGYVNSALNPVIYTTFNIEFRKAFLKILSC
Sequence of UniProt P49841 (whole entry, looked up): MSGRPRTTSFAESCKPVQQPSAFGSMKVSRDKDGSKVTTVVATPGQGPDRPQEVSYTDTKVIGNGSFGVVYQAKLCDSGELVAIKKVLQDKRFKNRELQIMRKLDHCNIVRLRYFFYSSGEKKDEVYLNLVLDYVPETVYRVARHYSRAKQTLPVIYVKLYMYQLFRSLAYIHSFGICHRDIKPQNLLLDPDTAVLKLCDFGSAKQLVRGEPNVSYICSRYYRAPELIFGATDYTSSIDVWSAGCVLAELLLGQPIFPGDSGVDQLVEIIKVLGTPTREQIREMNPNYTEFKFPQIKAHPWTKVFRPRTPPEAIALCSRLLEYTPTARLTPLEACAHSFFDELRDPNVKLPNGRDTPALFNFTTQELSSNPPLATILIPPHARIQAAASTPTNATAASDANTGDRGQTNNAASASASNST
Sequence of UniProt Q9H8M2 (whole entry, unmodified, looked up): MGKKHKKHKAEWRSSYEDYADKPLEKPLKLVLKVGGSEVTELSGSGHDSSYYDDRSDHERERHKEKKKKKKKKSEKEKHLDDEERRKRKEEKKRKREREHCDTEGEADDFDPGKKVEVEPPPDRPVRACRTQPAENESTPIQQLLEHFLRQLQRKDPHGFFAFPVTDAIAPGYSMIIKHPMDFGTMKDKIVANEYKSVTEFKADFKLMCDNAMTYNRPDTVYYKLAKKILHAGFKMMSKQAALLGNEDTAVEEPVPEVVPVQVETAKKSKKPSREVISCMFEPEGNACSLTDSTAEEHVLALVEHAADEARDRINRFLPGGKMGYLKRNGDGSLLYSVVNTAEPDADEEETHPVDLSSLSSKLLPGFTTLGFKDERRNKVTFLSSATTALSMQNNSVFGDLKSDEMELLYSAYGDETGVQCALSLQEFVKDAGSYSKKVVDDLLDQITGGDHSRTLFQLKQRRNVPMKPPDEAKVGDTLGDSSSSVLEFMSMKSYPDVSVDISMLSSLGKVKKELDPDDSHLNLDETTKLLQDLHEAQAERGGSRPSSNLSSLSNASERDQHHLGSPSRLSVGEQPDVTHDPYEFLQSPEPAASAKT

`COc1cc(-c2cc(C(C)=O)n3ccccc23)c(OC)cc1CO` gave a ΔTm of 8.5 °C (Bromodomain-containing protein 9 (BRD9, Homo sapiens, UniProt Q9H8M2); thermal stability, DSF; 200 µM).
For `O=c1cc(-c2ccc(O)c(-c3c(O)cc(O)c4c(=O)cc(-c5ccc(O)cc5)oc34)c2)oc2cc(O)cc(O)c12`, the remaining activity was 102% (CTSL; enzyme activity, inhibitor; 100 µM).
With `CNc1ncc2c(/C=C/C(=O)N3CCC(OC)CC3)nn(Cc3cccc(C(F)(F)F)c3)c2n1` the remaining activity was 95% (Dual specificity tyrosine-phosphorylation-regulated kinase 2 (DYRK2, Homo sapiens, UniProt Q92630); enzyme activity, inhibitor, radiometric; 1 µM).
`Nc1ncnc2occ(-c3ccc(NC(=O)Nc4cc(C(F)(F)F)ccc4F)cc3)c12` gave a remaining signal of 74% (Microtubule-associated serine/threonine-protein kinase 1 (MAST1, Homo sapiens, UniProt Q9Y2H9); cell-free assay, inhibitor; 20 µM).
The inhibition of `O=C(O)c1ccccc1` is reported as 12% (Ubiquitin carboxyl-terminal hydrolase 51 (USP51, Homo sapiens, UniProt Q70EK9); enzyme activity, inhibitor; 5 µM).
`O=c1c(O)c(-c2ccc(O)c(O)c2)oc2cc(O)ccc12` gave a remaining activity of 74.7% (CTSL; enzyme activity, inhibitor; 100 µM).
The remaining binding of `C=CC(=O)N1CCC(COCC(=O)N2CCN(c3nc(-c4cnc(N)nc4C(F)F)nc(N4CCOC[C@@H]4C)n3)CC2)CC1` is reported as 57% (Mast/stem cell growth factor receptor Kit (KIT, Homo sapiens, UniProt P10721, D816H); binding, competition with immobilised ligand; 1 µM).
For `COc1ccc(C=CC=O)cc1`, the remaining activity was 122% (CTSL; enzyme activity, inhibitor; 100 µM).
For `CCCCC(=O)Nc1ccc(-c2ccc3ncn(CCC)c(=O)c3c2)cn1`, the remaining binding was 100% (NT-3 growth factor receptor (NTRK3, Homo sapiens, UniProt Q16288); binding, competition with immobilised ligand; 0.5 µM).
`COc1cc(-c2cncc3c2CN(C)Cc2cc(N4CCNCC4)ccc2-3)cc(OC)c1OC` gave a remaining activity of 108% (Cyclin-dependent kinase-like 1 (CDKL1, Homo sapiens, UniProt Q00532); enzyme activity, inhibitor; 1 µM).
`Cc1[nH]c(C)c(S(=O)(=O)Nc2ccc(C(F)(F)F)c(Cl)c2)c1C(=O)N(C)CC(F)(F)F` has an Emax of 85% (D(3) dopamine receptor (DRD3, Homo sapiens, UniProt P35462); β-arrestin recruitment, agonist; 90 min).
With `N=C1NCC[C@H]([C@@H]2NC(=O)/C(=C/NC(N)=O)NC(=O)[C@H](CNC(=O)CC(N)CCCN)NC(=O)[C@H](CO)NC(=O)[C@@H](N)CNC2=O)N1` (stereo partly drawn) the remaining activity was 77.4% (CTSL; enzyme activity, inhibitor; 100 µM).
The inhibition of `CC[C@H](C)[C@H](NC(=O)[C@H](CCC(N)=O)NC(=O)[C@H](CC(C)C)NC(=O)[C@H](CCSC)NC(=O)[C@H](CCCCN)NC(=O)[C@H](CO)NC(=O)[C@H](CO)NC(=O)[C@H](CCSC)NC(=O)[C@H](CC(C)C)NC(=O)[C@H](CC(N)=O)NC(=O)[C@@H](NC(=O)[C@@H](NC(=O)[C@H](CO)NC(=O)[C@H](CC(C)C)NC(=O)[C@H](CS)NC(=O)[C@H](CCCNC(=N)N)NC(=O)[C@H](CC(=O)O)NC(=O)[C@H](Cc1c[nH]c2ccccc12)NC(=O)[C@H](Cc1ccccc1)NC(=O)[C@H](C)NC(=O)[C@H](CCC(=O)O)NC(=O)[C@@H](N)CCCCN)C(C)C)[C@@H](C)CC)C(=O)N[C@@H](CC(N)=O)C(=O)N[C@@H](C)C(=O)O` is reported as -8% (Glycogen synthase kinase-3 beta (GSK3B, Homo sapiens, UniProt P49841); enzyme activity, inhibitor, radiometric; 100 µM).
The remaining binding of `Cc1cc([C@@H](C)Nc2ccccc2C(=O)O)c2nc(N3CCC(F)(F)CC3)c(C#N)c(=O)n2c1` is reported as 100% (Serine/threonine-protein kinase DCLK1 (DCLK1, Homo sapiens, UniProt O15075); binding, competition with immobilised ligand; 10 µM).
With `C1=C/COCc2cc(ccc2OCCN2CCCC2)Nc2nccc(n2)-c2cccc(c2)COC/1` the remaining binding was 15% (Epidermal growth factor receptor (EGFR, Homo sapiens, UniProt P00533, L858R/T790M); binding; 0.1 µM).
